Assay results from different studies.
Parts stem from different laboratories: compare values within a part only.
Sequence of UniProt P23975 (whole entry, looked up): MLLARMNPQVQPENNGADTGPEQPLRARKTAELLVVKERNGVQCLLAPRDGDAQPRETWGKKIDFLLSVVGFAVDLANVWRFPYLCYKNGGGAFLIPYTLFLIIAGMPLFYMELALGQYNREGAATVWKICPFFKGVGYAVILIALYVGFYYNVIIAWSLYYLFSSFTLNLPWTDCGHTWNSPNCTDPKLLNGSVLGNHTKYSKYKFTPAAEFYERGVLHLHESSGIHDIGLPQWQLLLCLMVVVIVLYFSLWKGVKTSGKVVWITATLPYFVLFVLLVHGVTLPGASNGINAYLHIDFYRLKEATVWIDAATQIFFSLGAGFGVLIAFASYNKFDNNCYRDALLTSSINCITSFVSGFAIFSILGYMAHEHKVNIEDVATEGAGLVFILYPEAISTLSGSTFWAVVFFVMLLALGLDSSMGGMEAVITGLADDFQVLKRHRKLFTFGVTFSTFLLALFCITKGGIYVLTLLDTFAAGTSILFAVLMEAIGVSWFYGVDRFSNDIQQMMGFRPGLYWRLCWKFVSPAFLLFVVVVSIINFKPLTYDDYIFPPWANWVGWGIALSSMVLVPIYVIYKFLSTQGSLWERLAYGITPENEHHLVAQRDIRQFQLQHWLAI
Sequence of UniProt P41145 (whole entry, looked up): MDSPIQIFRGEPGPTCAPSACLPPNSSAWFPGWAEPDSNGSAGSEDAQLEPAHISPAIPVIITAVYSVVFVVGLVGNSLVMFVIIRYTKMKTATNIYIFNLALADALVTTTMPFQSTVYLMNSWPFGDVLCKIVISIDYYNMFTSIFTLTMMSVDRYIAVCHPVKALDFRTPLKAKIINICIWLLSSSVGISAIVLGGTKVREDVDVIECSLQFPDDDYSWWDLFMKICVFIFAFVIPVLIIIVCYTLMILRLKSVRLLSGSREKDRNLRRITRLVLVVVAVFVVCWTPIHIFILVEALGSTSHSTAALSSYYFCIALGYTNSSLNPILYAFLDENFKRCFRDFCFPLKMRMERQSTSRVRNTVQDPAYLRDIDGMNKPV
Sequence of UniProt P35372 (whole entry, looked up): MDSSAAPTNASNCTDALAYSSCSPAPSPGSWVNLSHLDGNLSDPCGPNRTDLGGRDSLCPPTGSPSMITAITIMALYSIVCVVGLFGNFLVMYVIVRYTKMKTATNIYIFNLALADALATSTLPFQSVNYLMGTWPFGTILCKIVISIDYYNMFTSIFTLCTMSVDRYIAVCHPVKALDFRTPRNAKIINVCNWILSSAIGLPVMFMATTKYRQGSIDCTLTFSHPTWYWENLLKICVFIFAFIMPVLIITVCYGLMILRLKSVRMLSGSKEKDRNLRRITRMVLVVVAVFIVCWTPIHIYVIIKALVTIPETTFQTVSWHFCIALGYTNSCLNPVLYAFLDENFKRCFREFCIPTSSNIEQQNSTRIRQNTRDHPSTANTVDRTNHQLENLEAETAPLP
Sequence of UniProt Q01959 (whole entry, looked up): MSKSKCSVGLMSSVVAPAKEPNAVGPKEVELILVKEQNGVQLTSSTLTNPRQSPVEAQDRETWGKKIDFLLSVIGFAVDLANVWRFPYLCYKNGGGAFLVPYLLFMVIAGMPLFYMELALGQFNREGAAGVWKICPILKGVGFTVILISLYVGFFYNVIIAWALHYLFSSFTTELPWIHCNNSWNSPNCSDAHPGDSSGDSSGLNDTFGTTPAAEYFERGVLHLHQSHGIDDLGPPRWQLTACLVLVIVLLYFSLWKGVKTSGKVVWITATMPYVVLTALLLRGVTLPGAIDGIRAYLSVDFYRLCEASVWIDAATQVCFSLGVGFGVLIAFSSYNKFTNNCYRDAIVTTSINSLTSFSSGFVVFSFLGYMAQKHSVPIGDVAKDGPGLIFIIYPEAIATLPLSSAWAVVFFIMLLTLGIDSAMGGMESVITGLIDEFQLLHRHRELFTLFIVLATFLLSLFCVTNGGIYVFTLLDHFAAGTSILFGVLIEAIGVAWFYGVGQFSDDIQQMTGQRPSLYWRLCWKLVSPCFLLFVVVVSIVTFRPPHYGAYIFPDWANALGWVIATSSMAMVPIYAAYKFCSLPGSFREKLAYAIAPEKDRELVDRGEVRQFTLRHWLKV
Sequence of UniProt P9WI81 (whole entry, looked up): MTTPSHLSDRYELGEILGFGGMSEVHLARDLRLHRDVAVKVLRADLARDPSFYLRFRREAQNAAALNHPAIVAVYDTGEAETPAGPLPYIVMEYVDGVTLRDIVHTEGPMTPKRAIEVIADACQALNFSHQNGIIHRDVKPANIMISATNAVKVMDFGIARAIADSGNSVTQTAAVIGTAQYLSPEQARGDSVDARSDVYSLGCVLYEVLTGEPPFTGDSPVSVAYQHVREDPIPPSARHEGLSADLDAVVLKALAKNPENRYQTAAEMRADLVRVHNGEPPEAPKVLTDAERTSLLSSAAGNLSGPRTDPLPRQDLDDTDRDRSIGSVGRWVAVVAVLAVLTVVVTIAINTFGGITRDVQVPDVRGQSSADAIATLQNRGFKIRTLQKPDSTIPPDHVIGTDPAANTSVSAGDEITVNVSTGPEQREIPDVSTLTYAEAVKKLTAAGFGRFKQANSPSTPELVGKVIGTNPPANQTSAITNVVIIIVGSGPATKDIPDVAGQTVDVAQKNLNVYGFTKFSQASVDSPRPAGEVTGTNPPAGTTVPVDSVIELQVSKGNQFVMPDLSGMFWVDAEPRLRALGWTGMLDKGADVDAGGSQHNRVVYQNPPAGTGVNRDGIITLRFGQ
Sequence of UniProt P31645 (whole entry, looked up): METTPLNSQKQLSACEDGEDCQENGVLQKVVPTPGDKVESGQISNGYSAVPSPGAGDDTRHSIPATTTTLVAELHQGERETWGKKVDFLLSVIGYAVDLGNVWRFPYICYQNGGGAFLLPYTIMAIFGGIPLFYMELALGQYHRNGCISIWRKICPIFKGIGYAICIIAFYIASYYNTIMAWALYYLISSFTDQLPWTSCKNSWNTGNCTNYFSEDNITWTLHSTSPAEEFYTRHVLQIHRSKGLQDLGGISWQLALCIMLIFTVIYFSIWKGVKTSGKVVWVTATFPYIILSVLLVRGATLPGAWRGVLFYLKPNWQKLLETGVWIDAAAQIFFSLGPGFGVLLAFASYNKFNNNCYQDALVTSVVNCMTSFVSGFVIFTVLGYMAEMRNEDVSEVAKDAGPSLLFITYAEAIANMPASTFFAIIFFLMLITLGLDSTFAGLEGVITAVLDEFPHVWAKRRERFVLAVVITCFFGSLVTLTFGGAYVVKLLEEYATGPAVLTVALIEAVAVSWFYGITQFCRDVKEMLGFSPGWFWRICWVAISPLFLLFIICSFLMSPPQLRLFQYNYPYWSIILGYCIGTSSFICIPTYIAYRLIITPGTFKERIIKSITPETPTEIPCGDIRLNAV
Sequence of UniProt P21918 (whole entry, looked up): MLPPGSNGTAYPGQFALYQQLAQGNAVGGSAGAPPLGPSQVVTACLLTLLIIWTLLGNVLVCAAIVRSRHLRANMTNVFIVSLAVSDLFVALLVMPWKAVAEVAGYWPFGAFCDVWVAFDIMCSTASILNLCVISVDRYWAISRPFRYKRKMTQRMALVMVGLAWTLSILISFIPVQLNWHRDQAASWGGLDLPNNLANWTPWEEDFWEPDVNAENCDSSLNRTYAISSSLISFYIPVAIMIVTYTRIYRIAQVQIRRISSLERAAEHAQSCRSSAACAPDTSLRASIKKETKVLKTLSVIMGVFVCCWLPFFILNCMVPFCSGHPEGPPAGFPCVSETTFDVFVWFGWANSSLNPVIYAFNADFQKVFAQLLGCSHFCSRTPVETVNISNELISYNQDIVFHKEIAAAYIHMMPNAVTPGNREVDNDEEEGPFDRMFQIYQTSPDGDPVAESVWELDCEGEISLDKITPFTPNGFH
Sequence of UniProt P20309 (whole entry, looked up): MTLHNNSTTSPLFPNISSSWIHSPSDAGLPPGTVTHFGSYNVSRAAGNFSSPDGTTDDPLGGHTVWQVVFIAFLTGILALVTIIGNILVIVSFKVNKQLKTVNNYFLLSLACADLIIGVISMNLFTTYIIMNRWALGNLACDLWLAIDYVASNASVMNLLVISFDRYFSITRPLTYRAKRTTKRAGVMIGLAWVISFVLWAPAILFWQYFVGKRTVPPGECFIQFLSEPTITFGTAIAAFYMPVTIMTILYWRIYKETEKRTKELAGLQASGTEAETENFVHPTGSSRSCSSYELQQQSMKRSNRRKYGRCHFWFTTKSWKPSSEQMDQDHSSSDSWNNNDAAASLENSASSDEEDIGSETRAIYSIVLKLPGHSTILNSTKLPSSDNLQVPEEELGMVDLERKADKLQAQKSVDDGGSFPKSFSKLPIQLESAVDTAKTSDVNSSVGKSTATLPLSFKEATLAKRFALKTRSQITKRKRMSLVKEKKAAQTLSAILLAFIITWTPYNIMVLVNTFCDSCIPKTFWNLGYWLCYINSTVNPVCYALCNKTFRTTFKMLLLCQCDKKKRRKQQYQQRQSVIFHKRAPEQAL

Series 1 — cell line: mouse MPNST tumor cells; method: high-content immunofluorescence imaging; item: nuclear SOX9; concentration: 10 µM; time: 12 h; notes: mean of 2 replicates; relative to: DMSO control; direction: higher = more nuclear SOX9
SMILES | nuclear SOX9 intensity
CC(=O)OC1CN2CCC1CC2 (stereo not shown) | 97.5 % of DMSO
COC(=O)[C@@H](N)CCCNC(=N)N[N+](=O)[O-] | 94.1 % of DMSO
CC(=O)O[C@H]1C[C@H](O[C@H]2[C@@H](O)C[C@H](O[C@H]3[C@@H](O)C[C@H](O[C@H]4CC[C@@]5(C)[C@H](CC[C@@H]6[C@@H]5C[C@@H](O)[C@]5(C)[C@@H](C7=CC(=O)OC7)CC[C@]65O)C4)O[C@@H]3C)O[C@@H]2C)O[C@H](C)[C@H]1O[C@@H]1O[C@H](CO)[C@@H](O)[C@H](O)[C@H]1O | 105 % of DMSO

Series 2 — cell line: HEK-293T/ACE2; concentration: concentration not given; time: 16 (unit not given); relative to: vehicle
Compound | viability
C[C@@H]1O[C@@H]1P(=O)(O)O | 104%
COC(=O)C1=C(C)NC(C)=C(C(=O)OCC(C)C)C1c1ccccc1[N+](=O)[O-] (stereo not shown) | 101%
N[C@@H]1CON=C1O | 99.6%
C[C@]12CC[C@@H]3c4ccc(OS(=O)(=O)O)cc4CC[C@H]3[C@@H]1CCC2=O | 101%
O=C1c2c(O)ccc(O)c2C(=O)c2c(NCCNCCO)ccc(NCCNCCO)c21 | 70%

Series 3 — observed: binding; method: radioligand binding; concentration: 10 µM
SMILES: CCCCN(CCCC)C(=O)CN1C[C@@H](c2cc(OC)c3c(c2)OCO3)[C@H](C(=O)O)[C@H]1CC(C)(C)CCC
target | inhibition
Mu-type opioid receptor (OPRM1, Homo sapiens, UniProt P35372) | 58.5%
Sodium-dependent dopamine transporter (SLC6A3, Homo sapiens, UniProt Q01959) | 23%
Sodium-dependent noradrenaline transporter (SLC6A2, Homo sapiens, UniProt P23975) | 38.5%
Kappa-type opioid receptor (OPRK1, Homo sapiens, UniProt P41145) | 69.9%
Muscarinic acetylcholine receptor M3 (CHRM3, Homo sapiens, UniProt P20309) | 10.3%
D(1B) dopamine receptor (DRD5, Homo sapiens, UniProt P21918) | 30.5%
Sodium-dependent serotonin transporter (SLC6A4, Homo sapiens, UniProt P31645) | -7.99%

Further values, each from its own experiment
Structure (SMILES) | target | assay | setting | quantity | result
COc1ccc2[nH]c3c4[nH]c5ccc(OC)cc5c4c4c(c3c2c1)C(=O)NC4=O | Serine/threonine-protein kinase PknB (pknB, Mycobacterium tuberculosis, UniProt P9WI81) | binding | 1 µM | remaining binding | 67%

Some of these lines once more (series 2):
Compound | viability
N[C@@H]1CON=C1O | 99.6%
